# Results collected from several papers.
# WRKY11 full length assumed: WRKY11 full length assumed (Arabidopsis thaliana, UniProt Q9SV15)
# Chain of UniProt Q9SV15 (whole entry, looked up): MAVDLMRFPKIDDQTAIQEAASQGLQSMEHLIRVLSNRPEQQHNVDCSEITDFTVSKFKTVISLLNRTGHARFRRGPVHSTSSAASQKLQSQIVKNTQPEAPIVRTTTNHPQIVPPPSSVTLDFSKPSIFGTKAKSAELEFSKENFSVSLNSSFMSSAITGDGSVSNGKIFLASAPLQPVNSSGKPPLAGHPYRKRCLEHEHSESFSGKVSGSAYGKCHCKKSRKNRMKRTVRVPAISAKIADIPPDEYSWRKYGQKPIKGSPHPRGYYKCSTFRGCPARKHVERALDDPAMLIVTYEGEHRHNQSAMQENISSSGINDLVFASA
# brat: brat 756-1037 (Drosophila melanogaster, UniProt Q8MQJ9)
# Chain of UniProt Q8MQJ9 (whole entry, looked up): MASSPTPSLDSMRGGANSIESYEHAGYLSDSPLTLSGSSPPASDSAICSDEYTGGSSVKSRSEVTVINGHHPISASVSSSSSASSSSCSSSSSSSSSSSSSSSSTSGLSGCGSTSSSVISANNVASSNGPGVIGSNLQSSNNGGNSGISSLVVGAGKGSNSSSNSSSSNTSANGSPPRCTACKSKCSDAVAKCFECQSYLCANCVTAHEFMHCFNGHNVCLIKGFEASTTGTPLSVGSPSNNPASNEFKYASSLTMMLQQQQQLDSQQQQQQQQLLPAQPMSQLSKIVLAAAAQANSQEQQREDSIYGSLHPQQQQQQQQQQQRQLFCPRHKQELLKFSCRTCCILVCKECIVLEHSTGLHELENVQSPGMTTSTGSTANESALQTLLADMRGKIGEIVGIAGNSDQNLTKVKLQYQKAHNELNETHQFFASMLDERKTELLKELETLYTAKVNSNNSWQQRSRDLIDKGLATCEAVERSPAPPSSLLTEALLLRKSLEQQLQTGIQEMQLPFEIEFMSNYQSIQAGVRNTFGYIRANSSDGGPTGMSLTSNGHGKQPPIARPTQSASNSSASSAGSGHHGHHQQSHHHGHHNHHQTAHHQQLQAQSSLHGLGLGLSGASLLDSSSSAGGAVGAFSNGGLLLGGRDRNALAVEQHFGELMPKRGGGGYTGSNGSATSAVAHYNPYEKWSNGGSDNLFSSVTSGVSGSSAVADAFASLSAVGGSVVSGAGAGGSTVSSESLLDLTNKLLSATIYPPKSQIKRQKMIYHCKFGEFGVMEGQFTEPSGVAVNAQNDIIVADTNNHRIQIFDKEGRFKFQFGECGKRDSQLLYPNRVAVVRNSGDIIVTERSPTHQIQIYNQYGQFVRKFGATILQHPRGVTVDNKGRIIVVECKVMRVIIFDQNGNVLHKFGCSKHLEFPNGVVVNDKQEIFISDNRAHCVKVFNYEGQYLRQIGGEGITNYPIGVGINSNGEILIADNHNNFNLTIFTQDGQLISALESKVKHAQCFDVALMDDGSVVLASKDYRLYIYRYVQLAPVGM
# Transcription factor bHLH93: Transcription factor bHLH93 (Gossypium hirsutum, UniProt A0ABM3A805)
# T1: NFATC3 393-708; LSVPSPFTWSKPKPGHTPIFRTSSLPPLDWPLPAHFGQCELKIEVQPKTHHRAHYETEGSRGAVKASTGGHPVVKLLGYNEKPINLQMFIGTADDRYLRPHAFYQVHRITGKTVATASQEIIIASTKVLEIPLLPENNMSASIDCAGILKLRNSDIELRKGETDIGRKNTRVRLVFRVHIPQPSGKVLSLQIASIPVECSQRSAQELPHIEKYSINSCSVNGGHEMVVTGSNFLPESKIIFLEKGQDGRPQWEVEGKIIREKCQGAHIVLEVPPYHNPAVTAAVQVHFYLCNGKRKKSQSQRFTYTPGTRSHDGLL
# T2: ZFP57 residues 227-287 C232F (Homo sapiens); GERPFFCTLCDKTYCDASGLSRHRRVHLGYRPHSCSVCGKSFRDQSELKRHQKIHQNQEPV
# T3: Aebp2 223-496 (Mus musculus); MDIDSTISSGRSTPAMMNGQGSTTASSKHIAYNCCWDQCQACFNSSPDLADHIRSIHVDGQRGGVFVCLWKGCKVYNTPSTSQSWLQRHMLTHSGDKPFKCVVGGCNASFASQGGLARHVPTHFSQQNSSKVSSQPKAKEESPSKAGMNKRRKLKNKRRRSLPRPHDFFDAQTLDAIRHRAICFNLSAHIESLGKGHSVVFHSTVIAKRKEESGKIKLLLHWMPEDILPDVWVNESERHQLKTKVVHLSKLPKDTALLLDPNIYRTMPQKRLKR
# Chain of UniProt Q8IZQ5 (whole entry, looked up): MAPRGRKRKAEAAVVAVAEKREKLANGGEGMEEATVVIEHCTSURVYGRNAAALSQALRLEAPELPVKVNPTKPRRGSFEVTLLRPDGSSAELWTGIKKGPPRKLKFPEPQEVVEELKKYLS
# Chain of UniProt P97454 (whole entry, looked up): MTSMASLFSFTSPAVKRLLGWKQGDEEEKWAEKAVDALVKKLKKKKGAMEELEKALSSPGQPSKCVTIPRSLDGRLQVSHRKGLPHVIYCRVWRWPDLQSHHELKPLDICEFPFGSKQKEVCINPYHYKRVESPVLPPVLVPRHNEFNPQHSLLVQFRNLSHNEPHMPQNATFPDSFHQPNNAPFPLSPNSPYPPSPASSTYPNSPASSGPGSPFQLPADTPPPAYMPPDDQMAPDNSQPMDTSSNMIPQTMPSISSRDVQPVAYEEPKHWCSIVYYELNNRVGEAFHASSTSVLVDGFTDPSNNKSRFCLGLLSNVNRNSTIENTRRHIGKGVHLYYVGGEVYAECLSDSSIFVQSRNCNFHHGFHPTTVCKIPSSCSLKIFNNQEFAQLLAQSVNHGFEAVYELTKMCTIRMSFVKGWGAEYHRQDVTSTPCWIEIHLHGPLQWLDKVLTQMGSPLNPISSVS
# Chain of UniProt Q96PU8 (whole entry, looked up): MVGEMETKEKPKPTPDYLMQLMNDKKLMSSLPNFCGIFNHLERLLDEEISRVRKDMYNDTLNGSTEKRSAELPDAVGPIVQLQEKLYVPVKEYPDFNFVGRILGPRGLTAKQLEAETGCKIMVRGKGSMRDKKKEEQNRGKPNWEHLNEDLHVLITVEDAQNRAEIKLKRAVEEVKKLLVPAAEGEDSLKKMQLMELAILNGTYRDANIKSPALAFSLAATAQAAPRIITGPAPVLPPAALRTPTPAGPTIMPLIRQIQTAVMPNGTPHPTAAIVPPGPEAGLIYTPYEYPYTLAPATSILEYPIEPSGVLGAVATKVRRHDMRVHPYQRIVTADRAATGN
# Chain of UniProt Q7Z739 (whole entry, looked up): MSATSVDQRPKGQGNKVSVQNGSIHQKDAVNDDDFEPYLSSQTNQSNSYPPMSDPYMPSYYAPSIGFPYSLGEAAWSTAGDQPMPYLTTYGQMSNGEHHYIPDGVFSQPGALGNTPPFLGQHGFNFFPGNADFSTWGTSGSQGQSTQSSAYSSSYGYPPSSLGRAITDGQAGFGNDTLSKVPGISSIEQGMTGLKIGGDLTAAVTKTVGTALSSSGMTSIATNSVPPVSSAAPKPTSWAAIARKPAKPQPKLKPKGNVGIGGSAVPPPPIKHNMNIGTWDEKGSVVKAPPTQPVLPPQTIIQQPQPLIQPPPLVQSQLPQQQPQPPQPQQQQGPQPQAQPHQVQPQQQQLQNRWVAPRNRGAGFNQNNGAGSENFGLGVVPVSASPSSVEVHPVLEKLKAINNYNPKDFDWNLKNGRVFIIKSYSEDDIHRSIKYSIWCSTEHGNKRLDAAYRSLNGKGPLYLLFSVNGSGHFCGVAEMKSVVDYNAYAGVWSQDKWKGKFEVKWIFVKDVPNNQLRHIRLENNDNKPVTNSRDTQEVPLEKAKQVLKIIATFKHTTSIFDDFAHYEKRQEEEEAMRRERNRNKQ
Oligonucleotide,target,effect on,method,form,setting,together with,binding
AGGAAGTTTTCCGCTGGT (dsDNA),"T1, NFATC3 393-708",,EMSA,"double-stranded DNA, one strand shown",,,binds
TTGGTTGACTATCAACATCTTATTGACCAAAT (dsDNA),WRKY11 full length assumed,,EMSA,"double-stranded DNA, one strand shown",two complexes,,binds
GAGCTGAGCGGCACCCACAC (dsDNA (Homo sapiens); 5-methylcytosine),"T2, ZFP57 residues 227-287 C232F (Homo sapiens)",,EMSA,"double-stranded DNA, one strand shown",,,binds
TTATTCAGCCATCAAAAGGTGACCAATAAT (dsDNA),WRKY11 full length assumed,,EMSA,"double-stranded DNA, one strand shown",,,no binding
ATCAGTCTAGACATACA (dsDNA),"Smad5 1-143 (Mus musculus, UniProt P97454)",,EMSA,"double-stranded DNA, one strand shown",,,binds
TTATTCAGCCATCAAATGTTGACCATTAAT (dsDNA),WRKY11 full length assumed,,EMSA,"double-stranded DNA, one strand shown",,,binds
CGTCTGCCTGCCCCCTTGAACTCCCCAAGAGCCAAGAACCAGCG (dsDNA),"Uncharacterized protein 424-651 (Zea mays, UniProt A0A1D6GZW1)",,EMSA,"double-stranded DNA, one strand shown",,,binds
TATTTTGTTGTCGAAAATTGTACATAA (ssDNA (Drosophila melanogaster); dT instead of dU),brat,,EMSA,single-stranded DNA,,,no binding
DNA 1 TTTTTTTTTTTGCAGATATGGGAAGAACTCGTCCCAAGTCTCACAG / DNA 2 CTGTGAGACTTGGGACGAGTTCTTCCCATATCTGC (dsDNA),"SELENOH 2-15 (Homo sapiens, UniProt Q8IZQ5)",,BLI,double-stranded DNA,,,no binding
GGGAGACCUAGCCUCAUAUAAUCGUUGUCCAGAAUUGUAUAUAUUCGUAGCAUAAGUUUUCCAAACAUUAUUGGGUUGUCGAAAAUUGUACAUAAGCCAAUUAAGCCGCUA (ssRNA),brat,,EMSA,RNA,,,no binding
CATTCCCTGAGGACTTCAGTATCCCGTCCTCACAAGGCCAACCTCAGCATGA (dsDNA),"T3, Aebp2 223-496 (Mus musculus)",,competition binding,"double-stranded DNA, one strand shown",,labelled T1 probe,binds
TTATTCAGCCATCAAAAGTAGACCAATAAT (dsDNA),WRKY11 full length assumed,,EMSA,"double-stranded DNA, one strand shown",,,no binding
GATCTTTAGTTAACTTCCTCTCTGTCTGAAAAAAACTCCAGATC (dsDNA),"T3, Aebp2 223-496 (Mus musculus)",,competition binding,"double-stranded DNA, one strand shown",,labelled T1 probe,no binding
TTATTCAGCCATCAAAAGCTGACCAATAAT (dsDNA),WRKY11 full length assumed,,EMSA,"double-stranded DNA, one strand shown",,,no binding
GGGAGACCUAGCCUCAUAUAAUCGUUGUCCAGAAUGGGAUGGAUUCGUAGCAUAAGUUUUCCAAACAUUAUUUUGUUGUCGAAAAUGGGACGGAAGCCAAUUAAGCCGCUA (ssRNA),brat,,EMSA,RNA,,,binds
TTGAAAACAACACTTGTCCTCTAGGA (dsDNA),Transcription factor bHLH93,,EMSA,"double-stranded DNA, one strand shown",,,binds
GATCTTTAGTTAACTTCCTCTCTGTCTGCTGTCTGCAGGCCACTCCAGATC (dsDNA),"T3, Aebp2 223-496 (Mus musculus)",,competition binding,"double-stranded DNA, one strand shown",,labelled T1 probe,binds
UAUUAAGAAGUCGAAAAUUGUACAUAA (ssRNA),brat,,EMSA,RNA,,,no binding
TTATTCAGCCATCAAAAGTTCACCAATAAT (dsDNA),WRKY11 full length assumed,,EMSA,"double-stranded DNA, one strand shown",,,no binding
ATGTGTTAGTTGGGGGGTGACTGTTAAAAGTGCATACCGCCAAAAGATAAAATTTGAAATCTG (dsDNA; 2-aminopurine at -1 non-template),POLRMT/TFAM/TFB2M 43-1230; 43-245; 21-396 (Homo sapiens),,2-AP fluorescence,"double-stranded DNA, one strand shown",,ATP,binds
"GGTAGAGACCTGTTGACTCGAAAGAGTCAACAGGTC (hairpin DNA; hairpin primer-template, 3' dideoxy end)","polA 324-928 D424A/K550C/L744C/C907S/E710A (Escherichia coli, UniProt P00582)",,single-molecule FRET,folded DNA,binary complex,,binds
CAGCAAATATTATTGACCAAGAAATGCAAA (dsDNA),WRKY11 full length assumed,,EMSA,"double-stranded DNA, one strand shown",,,no binding
TGCTGATTGGCCATGTGCGCTACACCGAGGGGCGGGG (dsDNA),HIF1A/ARNT (Homo sapiens),competition with unlabelled DNA,competition EMSA,"double-stranded DNA, one strand shown",not purified,,binds
GATCTTTAAAAAAATTCCTCTCTGTCTGCAGGCCACTCCAGATC (dsDNA),"T3, Aebp2 223-496 (Mus musculus)",,competition binding,"double-stranded DNA, one strand shown",,labelled T1 probe,no binding
GTTCATTTTCCAAATGGAAAATGTTT (dsDNA),Transcription factor bHLH93,,EMSA,"double-stranded DNA, one strand shown",,,binds
"GGUGCUCGCUUCGGCAGCACUAUACUAAAAU (structured RNA (Homo sapiens); hairpin, single-stranded flank)","QKI 76-205 (Homo sapiens, UniProt Q96PU8)",,NMR titration,folded RNA,,,binds
TTATTCAGCCATCAAAAGTTGACCTATAAT (dsDNA),WRKY11 full length assumed,,EMSA,"double-stranded DNA, one strand shown",,,binds
AAGAAGAAAGCATTTGAAGACTACTA (dsDNA),Transcription factor bHLH93,,EMSA,"double-stranded DNA, one strand shown",,,binds
GTCGACCAGCTGAGTCGACCAGCTG (ssDNA; N6-methyl-dA),"YTHDF3 400-585 (Homo sapiens, UniProt Q7Z739)",,pull-down,single-stranded DNA,,,binds
ACAATGGAAATATCTTCAAATTATCTCAACACTTATGGCCAGTTATCGGGTGTC (dsDNA),"T3, Aebp2 223-496 (Mus musculus)",,competition binding,"double-stranded DNA, one strand shown",,labelled T1 probe,binds
TAGGATGTTTCAAGTGATGAGATACG (dsDNA),Transcription factor bHLH93,,EMSA,"double-stranded DNA, one strand shown",,,no binding
ACUUGGUUUAACUUCAUUUGUGACCUUUUCUUGUA (ssRNA),"Uncharacterized protein (Zea mays, UniProt K7TID7)",,EMSA,RNA,,,binds

# Some of these lines once more:
Oligonucleotide,target,effect on,method,form,setting,together with,binding
TTGGTTGACTATCAACATCTTATTGACCAAAT (dsDNA),WRKY11 full length assumed,,EMSA,"double-stranded DNA, one strand shown",two complexes,,binds
AAGAAGAAAGCATTTGAAGACTACTA (dsDNA),Transcription factor bHLH93,,EMSA,"double-stranded DNA, one strand shown",,,binds
